Measured values gathered from unrelated publications.
Protocols differ between the studies behind these lines. ± gives the spread as reported.

| SMILES | test | system | setting | half-life |
| --- | --- | --- | --- | --- |
| CSCC[C@@H]1NC(=O)[C@H](Cc2ccccc2)NC(=O)CNC(=O)[C@H](NC(=O)[C@@H](N)Cc2ccc(O)cc2)CSSC[C@@H](C(=O)N[C@@H](Cc2c[nH]c3ccccc23)C(=O)NCc2cc(C(F)(F)F)cc(C(F)(F)F)c2)NC(=O)[C@@H]2CCCN2C1=O |  | rat plasma | 50 µg/mL, 37 °C | > 6 h |
| O=c1[nH]c2ccccc2c(=O)o1 | chemical stability, HPLC-MS | borate buffered saline | pH 10.2, no N-acetyl-lysine | 0.3 h |
| CC[C@H](C)[C@@H]1NC(=O)[C@H](CO)NC(=O)[C@H](CCCCN)NC(=O)[C@@H]2CSSC[C@@H](C(=O)N[C@@H](Cc3ccc(O)cc3)C(N)=O)NC(=O)[C@H](CCCCN)NC(=O)[C@@H]3CSSC[C@H](NC(=O)[C@H](CCCNC(=N)N)NC(=O)[C@H](CC(C)C)NC(=O)[C@H](CC(=O)O)NC(=O)[C@H](CC(=O)O)NC(=O)[C@H](CCC(=O)O)NC(=O)[C@H](CC(N)=O)NC(=O)[C@H](Cc4c[nH]c5ccccc45)NC(=O)[C@@H]4CCCN4C(=O)CNC(=O)[C@H](CC(N)=O)NC(=O)[C@@H](NC(=O)CNC(=O)[C@H](Cc4ccccc4)NC(=O)CN)CSSC[C@H](NC(=O)[C@H](Cc4ccc(O)cc4)NC(=O)CNC(=O)CNC(=O)[C@H](CCCCN)NC(=O)[C@H](Cc4ccc(O)cc4)NC(=O)CNC(=O)[C@H](CCCCN)NC1=O)C(=O)N[C@@H](C)C(=O)N[C@@H](CCCCN)C(=O)NCC(=O)NCC(=O)N[C@@H](Cc1ccccc1)C(=O)N[C@@H](C(C)C)C(=O)N3)C(=O)N[C@@H](Cc1c[nH]cn1)C(=O)N[C@@H](CC(N)=O)C(=O)N[C@@H](Cc1c[nH]cn1)C(=O)N2 | HPLC | trypsin digestion | 13.2 µM, pH 8.5, room temperature, with: trypsin 0.9 µM | 1.3 h |
| CC[C@H](C)[C@@H]1NC(=O)[C@H](Cc2ccc(O)cc2)NC(=O)[C@@H](N)CSCSC[C@@H](C(=O)N2CCC[C@H]2C(=O)N[C@@H](CC(C)C)C(=O)NCC(N)=O)NC(=O)[C@H](CC(N)=O)NC(=O)[C@H](CCC(N)=O)NC1=O |  | phosphate buffer | 0.1 mg/mL, pH 7.0, 40 °C | 806 h |
| CC(C)C(=O)OC[C@H]1O[C@@](C#N)(n2ccc(N)nc2=O)[C@H](O)[C@@H]1O | plasma stability | mouse plasma | conversion to CNC metabolite | < 0.0833 h |
| N[C@@H](Cc1ccc(O)cc1)C(=O)N[C@@H]1CSCc2ccccc2CSC[C@@H](NC(=O)[C@@H](N)Cc2ccc(O)cc2)C(=O)NCC(=O)N[C@@H](Cc2ccc(F)cc2)C(=O)NNC(=O)[C@H](Cc2ccc(F)cc2)NC(=O)CNC1=O | LC-MS | human plasma | 5 µM, 37 °C | > 1 h |
| C=C1NC(=O)CNC(=O)[C@H](CC(N)=O)NC(=O)[C@H](CC(C)C)NC(=O)CNC(=O)[C@H](CCCCN)NC(=O)[C@H](C)NC(=O)[C@H]([C@@H](C)CC)NC(=O)[C@H](CO)NC(=O)[C@H](Cc2c[nH]c3ccccc23)NC(=O)[C@H](C)NC(=O)[C@H](Cc2c[nH]c3ccccc23)NC(=O)c2ccc(-c3nc(C(=O)OC)cs3)nc2-c2csc1n2 | LC-MS | human serum | pH 7.6, 37 °C | 14 h |
| CC[C@H](C)[C@H](NC(=O)[C@@H](Cc1ccccc1)NC)C(=O)OC[C@H](N)C(=O)N[C@H](CCC(N)=O)C(=O)N[C@@H](C(=O)N[C@H](C(=O)OC[C@H](N)C(=O)N[C@H]1C(=O)N[C@@H](C)C(=O)N[C@@H](C2CCCCC2)C(=O)N[C@@H]([C@@H](C)CC)C(=O)O[C@H]1C)[C@@H](C)CC)[C@@H](C)CC | conversion to teixobactin | phosphate buffer | pH 7.4, room temperature | 0.167 h |
| O=C(O)c1ccc(-c2nc(-c3ccccc3Cl)c3sccn23)cc1 |  | human liver microsomes | 1 µM | 1 h |
| Cc1cc(C)n(-c2nc(-c3ccccc3)cc(=O)n2CC(=O)Nc2cccc([N+](=O)[O-])c2)n1 |  | human liver microsomes | pH 7.4, with: NADPH | 0.917 ± 0.0983 h |
| CC[C@H](C)[C@@H]1NC(=O)[C@H](CO)NC(=O)C(C)(CCCCN)NC(=O)[C@@H]2CSSC[C@@H](C(=O)N[C@@H](Cc3ccc(O)cc3)C(N)=O)NC(=O)[C@H](CCCCN)NC(=O)[C@@H]3CSSC[C@H](NC(=O)[C@H](CCCNC(=N)N)NC(=O)C(C)(CC(C)C)NC(=O)[C@H](CC(=O)O)NC(=O)[C@H](CC(=O)O)NC(=O)[C@H](CCC(=O)O)NC(=O)[C@H](CC(N)=O)NC(=O)[C@H](Cc4c[nH]c5ccccc45)NC(=O)C(C)(CC)NC(=O)CNC(=O)[C@H](CC(N)=O)NC(=O)[C@@H](NC(=O)CNC(=O)[C@H](Cc4ccccc4)NC(=O)CN)CSSC[C@H](NC(=O)[C@H](Cc4ccc(O)cc4)NC(=O)CNC(=O)CNC(=O)[C@H](CCCCN)NC(=O)[C@H](Cc4ccc(O)cc4)NC(=O)[C@H]4CCCN4C(=O)[C@@H]4CCCN4C1=O)C(=O)N[C@@H](C)C(=O)N[C@@H](CCCCN)C(=O)N1CCC[C@@H]1C(=O)NCC(=O)N[C@@H](Cc1ccccc1)C(=O)N[C@@H](C(C)C)C(=O)N3)C(=O)N[C@@H](Cc1c[nH]cn1)C(=O)NC(C)(C)C(=O)N[C@@H](Cc1c[nH]cn1)C(=O)N2 (some centres unmarked) |  | pronase | 13.2 µM, pH 7.2, room temperature | 6.1 h |
| CC[C@H](C)[C@H](NC(=O)[C@H](CCC(N)=O)NC(=O)[C@H](Cc1c[nH]cn1)NC(=O)[C@H](C)NC(=O)[C@H](CC(C)C)NC(=O)[C@H](CCCCN)NC(=O)[C@H](CCC(N)=O)NC(=O)[C@@H](NC(=O)[C@@H](NC(=O)[C@@H]1CSSC[C@H](NC(=O)CNC(=O)[C@H](Cc2ccccc2)NC(=O)[C@H](CO)NC(=O)[C@H](CCCNC(=N)N)NC(=O)[C@H](CC(C)C)NC(=O)CNC(=O)[C@H](CCC(N)=O)NC(=O)[C@H](Cc2ccccc2)NC(=O)[C@H](CC(N)=O)NC(=O)[C@H](CC(N)=O)NC(=O)[C@H](CCSC)NC(=O)[C@H](CO)NC(=O)[C@H](CCC(N)=O)NC(=O)[C@H](CCCNC(=N)N)NC(=O)[C@@H](N)Cc2ccc(O)cc2)C(=O)N[C@@H](CCCNC(=N)N)C(=O)N[C@@H](Cc2ccccc2)C(=O)NCC(=O)N[C@@H]([C@@H](C)O)C(=O)N1)[C@@H](C)O)C(C)C)C(=O)N[C@@H](Cc1ccc(O)cc1)C(=O)N[C@@H](CCC(N)=O)C(=O)N[C@@H](Cc1ccccc1)C(=O)N[C@H](C(=O)N[C@@H](CC(=O)O)C(=O)N[C@@H](CCCCN)C(=O)N[C@@H](CC(=O)O)C(=O)N[C@@H](CCCCN)C(=O)N[C@@H](CC(=O)O)C(=O)N[C@@H](CC(N)=O)C(=O)N[C@H](C(=O)N[C@@H](C)C(=O)N1CCC[C@H]1C(=O)N[C@@H](CCCNC(=N)N)C(=O)N[C@@H](CO)C(=O)N[C@@H](CCCCN)C(=O)N[C@H](C(=O)N[C@@H](CO)C(=O)N1CCC[C@H]1C(=O)N[C@@H](CCC(N)=O)C(=O)NCC(=O)N[C@@H](Cc1ccc(O)cc1)C(=O)NCC(=O)O)[C@@H](C)CC)C(C)C)[C@@H](C)O |  | diluted human serum | 1 ng/mL, ambient temperature | 0.26 h |
| CC(C)C[C@H](NC(=O)[C@@H]1CCCN1C(=O)[C@H]1CSSC[C@@H](NC(=O)[C@@H](N)Cc2ccc(O)cc2)C(=O)NCC(=O)N[C@@H](Cc2ccccc2)C(=O)N1)C(=O)N[C@@H](Cc1c[nH]c2ccccc12)C(=O)NCc1cc(C(F)(F)F)cc(C(F)(F)F)c1 |  | rat plasma | 50 µg/mL, 37 °C | 4.9 h |
| CCOC(=O)Nc1ccc2c(c1)CN1C(=S)N(c3ccc(C#N)c(C(F)(F)F)c3)C(=O)C1C2 (centres unmarked) |  |  | oral, 5 mg/kg | 15.3 ± 1.33 h |
| C=C1NC(=O)C(=C)NC(=O)[C@H](CCCCN)NC(=O)[C@H](CC(C)C)NC(=O)[C@H]([C@@H](C)O)NC(=O)[C@H](CCCCN)NC(=O)[C@H](Cc2ccc(O)cc2)NC(=O)[C@H]([C@@H](C)CC)NC(=O)[C@H](Cc2ccccc2)NC(=O)CNC(=O)[C@H](Cc2c[nH]c3ccccc23)NC(=O)c2ccc(-c3nc(C(=O)OC)cs3)nc2-c2csc(n2)C(=C)NC(=O)CNC1=O | LC-MS | human serum | pH 7.6, 37 °C | 1.6 ± 0.1 h |
| CC[C@H](C)[C@@H]1NC(=O)[C@H](CO)NC(=O)[C@H](CCCCN)NC(=O)[C@@H]2CSSC[C@@H](C(=O)N[C@@H](Cc3ccc(O)cc3)C(N)=O)NC(=O)[C@H](CCCCN)NC(=O)[C@@H]3CSSC[C@H](NC(=O)[C@H](CCCNC(=N)N)NC(=O)[C@H](CC(C)C)NC(=O)[C@H](CC(=O)O)NC(=O)[C@H](CC(=O)O)NC(=O)[C@H](CCC(=O)O)NC(=O)[C@H](CC(N)=O)NC(=O)[C@H](Cc4c[nH]c5ccccc45)NC(=O)C(C)(CC)NC(=O)CNC(=O)[C@H](CC(N)=O)NC(=O)[C@@H](NC(=O)CNC(=O)[C@H](Cc4ccccc4)NC(=O)CN)CSSC[C@H](NC(=O)[C@H](Cc4ccc(O)cc4)NC(=O)CNC(=O)CNC(=O)[C@H](CCCCN)NC(=O)[C@H](Cc4ccc(O)cc4)NC(=O)[C@H]4CCCN4C(=O)[C@@H]4CCCN4C1=O)C(=O)N[C@@H](C)C(=O)N[C@@H](CCCCN)C(=O)N1CCC[C@@H]1C(=O)NCC(=O)N[C@@H](Cc1ccccc1)C(=O)N[C@@H](C(C)C)C(=O)N3)C(=O)N[C@@H](Cc1c[nH]cn1)C(=O)N[C@@H](CC(N)=O)C(=O)N[C@@H](Cc1c[nH]cn1)C(=O)N2 (some centres unmarked) | HPLC | trypsin digestion | 13.2 µM, pH 8.5, room temperature, with: trypsin 0.9 µM | 7.7 h |
| CC[C@H](C)[C@H](NC(=O)[C@H](NC(=O)[C@@H](CCC(N)=O)NC(=O)[C@@H](N)COC(=O)[C@@H](NC(=O)[C@@H](Cc1ccccc1)NC)[C@@H](C)CC)[C@@H](C)CC)C(=O)N[C@@H](CO)C(=O)N[C@H]1C(=O)N[C@@H](C)C(=O)N[C@@H](C2CCCCC2)C(=O)N[C@@H]([C@@H](C)CC)C(=O)O[C@H]1C | conversion to teixobactin | phosphate buffer | pH 7.4, room temperature | 0.5 h |

A few entries again:
| SMILES | test | system | setting | half-life |
| --- | --- | --- | --- | --- |
| O=c1[nH]c2ccccc2c(=O)o1 | chemical stability, HPLC-MS | borate buffered saline | pH 10.2, no N-acetyl-lysine | 0.3 h |
| CC[C@H](C)[C@@H]1NC(=O)[C@H](CO)NC(=O)[C@H](CCCCN)NC(=O)[C@@H]2CSSC[C@@H](C(=O)N[C@@H](Cc3ccc(O)cc3)C(N)=O)NC(=O)[C@H](CCCCN)NC(=O)[C@@H]3CSSC[C@H](NC(=O)[C@H](CCCNC(=N)N)NC(=O)[C@H](CC(C)C)NC(=O)[C@H](CC(=O)O)NC(=O)[C@H](CC(=O)O)NC(=O)[C@H](CCC(=O)O)NC(=O)[C@H](CC(N)=O)NC(=O)[C@H](Cc4c[nH]c5ccccc45)NC(=O)[C@@H]4CCCN4C(=O)CNC(=O)[C@H](CC(N)=O)NC(=O)[C@@H](NC(=O)CNC(=O)[C@H](Cc4ccccc4)NC(=O)CN)CSSC[C@H](NC(=O)[C@H](Cc4ccc(O)cc4)NC(=O)CNC(=O)CNC(=O)[C@H](CCCCN)NC(=O)[C@H](Cc4ccc(O)cc4)NC(=O)CNC(=O)[C@H](CCCCN)NC1=O)C(=O)N[C@@H](C)C(=O)N[C@@H](CCCCN)C(=O)NCC(=O)NCC(=O)N[C@@H](Cc1ccccc1)C(=O)N[C@@H](C(C)C)C(=O)N3)C(=O)N[C@@H](Cc1c[nH]cn1)C(=O)N[C@@H](CC(N)=O)C(=O)N[C@@H](Cc1c[nH]cn1)C(=O)N2 | HPLC | trypsin digestion | 13.2 µM, pH 8.5, room temperature, with: trypsin 0.9 µM | 1.3 h |
